Published values collected from several papers.
A part holds a random share of what one study measured.

Study 1
Cell line: mouse MPNST tumor cells
Technique: high-content immunofluorescence imaging
Refers to: nuclear SOX9
Tested at: 10 µM
Time: 12 h
Notes: mean of 2 replicates
Baseline: DMSO control
Reading: higher = more nuclear SOX9
SMILES | nuclear SOX9 intensity
Cc1csc(NC(=O)c2cc(F)cc(Oc3cncnc3)c2)n1 | 92.3 % of DMSO
CC(C)C[C@@H](C(=O)N[C@H](C(=O)OC1CCCC1)c1ccccc1)[C@H](O)C(=O)NO | 142 % of DMSO
Cc1ccc(-c2cn3c4c(sc3n2)CCCC4)cc1 | 74 % of DMSO
CCN(C(=O)c1ccccc1OC)c1cc2c(cc1N1CCNCC1C)n(C)c(=O)n2C (centres unmarked) | 93.7 % of DMSO

Study 2
Compound: CC(=O)N[C@@H](Cc1c[nH]c2ccccc12)C(=O)N[C@@H](CCC(=O)C=[N+]=[N-])C(=O)OC(C)C
Tested at: 5 µM
test system | setting | remaining compound
mouse intestinal homogenate | 0.05 h, with: pepstatin A 1.0 µM | 0.941%
mouse intestinal homogenate | 0.05 h, with: aprotinin 0.8 µM | 12.9%
mouse intestinal homogenate | 0 h, no inhibitor | 100%
EL4 tumour homogenate, mouse | 0 h, with: leupeptin 100 µM | 100%
mouse intestinal homogenate | 0 h, with: dichlorvos 500 µM | 100%

Study 3
Structure (SMILES): CC(C)n1cnc(-c2ccc(F)cc2)c1-c1ncc(C(=O)Nc2ccc(N3CCN(C)CC3)cc2)[nH]1
Technique: phase 2a trial
Host: idiopathic pulmonary fibrosis patients
setting | patients with nasopharyngitis
all arms pooled, grade 4 emergent event | 0%
30 mg once daily, grade 3 emergent event | 0%
all arms pooled, grade 2 emergent event | 0%
all arms pooled, grade 5 emergent event | 0%
60 mg once daily, grade 5 emergent event | 0%
60 mg once daily, grade 3 emergent event | 0%
all arms pooled, grade 1 emergent event | 0%

Study 4
Target: Alpha-1D adrenergic receptor (ADRA1D, Homo sapiens, UniProt P25100)
UniProt P25100, sequence (whole entry, looked up): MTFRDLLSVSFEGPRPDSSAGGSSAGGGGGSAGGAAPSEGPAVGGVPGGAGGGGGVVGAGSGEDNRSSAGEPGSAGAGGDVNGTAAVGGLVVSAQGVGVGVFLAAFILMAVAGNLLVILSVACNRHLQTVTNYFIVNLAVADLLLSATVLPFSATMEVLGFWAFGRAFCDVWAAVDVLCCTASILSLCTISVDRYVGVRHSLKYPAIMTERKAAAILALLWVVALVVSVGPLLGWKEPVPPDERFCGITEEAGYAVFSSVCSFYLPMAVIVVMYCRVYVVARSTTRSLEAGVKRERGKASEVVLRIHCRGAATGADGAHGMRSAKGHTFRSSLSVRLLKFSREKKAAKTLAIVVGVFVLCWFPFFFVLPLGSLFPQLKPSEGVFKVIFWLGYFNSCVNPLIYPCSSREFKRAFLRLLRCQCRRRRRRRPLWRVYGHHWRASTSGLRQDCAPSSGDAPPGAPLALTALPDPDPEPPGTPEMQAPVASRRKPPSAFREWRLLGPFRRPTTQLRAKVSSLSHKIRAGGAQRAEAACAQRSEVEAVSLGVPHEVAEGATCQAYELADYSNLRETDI
Observed: binding
Technique: radioligand binding
Tested at: 10 µM
SMILES | inhibition
CNC(=O)c1ccc(Nc2ncc(C(F)(F)F)c(NCc3nccnc3N(C)S(C)(=O)=O)n2)cc1 | 4.13%
Cc1c[nH]c2nccc(Oc3c(F)cc(Nc4cc(Cl)nc(N)n4)cc3F)c12 | -11.6%
CC(=O)Nc1c(F)cc(C(=O)N[C@H]2CC[C@H](O)CC2)cc1O[C@@H](C)c1ccccc1 | -6.01%
CC1=C(C#N)C(c2ccc3c(c2)c(NC(=O)c2ccccc2C)nn3C)C(C#N)=C(C)N1 | 4.71%
CCOC(=O)c1cc2cc(-c3cc(C(=O)NCc4ccc(C(=O)O)cc4)nn3C)ccc2[nH]1 | -10.6%
Cc1c(N2CCCC2)nc2ccc(Br)cc2c1C(=O)NC[C@H](CCC(=O)O)c1ccccc1Cl | 3.44%
Cc1nccc(COC(=O)N2C[C@@H]3[C@@H](CNC(=O)c4ccc5[nH]nnc5c4)[C@@H]3C2)n1 | -6.43%
CC(C)CC(=O)N1CCc2nc(-c3ccc(Br)cc3)nc(N(C)Cc3ccccc3)c2C1 | -22.3%

Study 5
Target: Serine/threonine-protein kinase D3 (PRKD3, Homo sapiens, UniProt O94806)
UniProt O94806, sequence (whole entry, looked up): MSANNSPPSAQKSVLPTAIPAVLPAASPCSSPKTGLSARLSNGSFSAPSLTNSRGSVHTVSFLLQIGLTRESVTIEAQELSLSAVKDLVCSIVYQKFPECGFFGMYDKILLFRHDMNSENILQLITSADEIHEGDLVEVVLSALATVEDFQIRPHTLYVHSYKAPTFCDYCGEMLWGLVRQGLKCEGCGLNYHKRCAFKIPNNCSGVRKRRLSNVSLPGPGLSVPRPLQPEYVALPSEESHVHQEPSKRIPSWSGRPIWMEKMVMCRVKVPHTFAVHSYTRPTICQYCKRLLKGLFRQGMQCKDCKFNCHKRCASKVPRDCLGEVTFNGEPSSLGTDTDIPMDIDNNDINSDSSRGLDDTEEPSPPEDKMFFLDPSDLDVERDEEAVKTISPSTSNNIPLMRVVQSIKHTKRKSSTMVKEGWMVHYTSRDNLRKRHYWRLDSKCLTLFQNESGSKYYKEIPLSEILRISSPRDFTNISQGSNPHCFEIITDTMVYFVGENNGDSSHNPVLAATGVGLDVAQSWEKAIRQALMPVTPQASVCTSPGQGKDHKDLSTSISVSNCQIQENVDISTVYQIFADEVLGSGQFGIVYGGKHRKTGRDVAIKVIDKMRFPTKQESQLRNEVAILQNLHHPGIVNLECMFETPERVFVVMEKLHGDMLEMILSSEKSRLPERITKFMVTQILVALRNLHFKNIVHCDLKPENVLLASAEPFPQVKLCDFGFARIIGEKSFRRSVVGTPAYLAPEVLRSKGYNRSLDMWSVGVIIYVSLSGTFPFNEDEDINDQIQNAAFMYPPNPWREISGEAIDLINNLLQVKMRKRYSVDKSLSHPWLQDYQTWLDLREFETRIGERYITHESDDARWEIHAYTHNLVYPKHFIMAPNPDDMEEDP
Observed: enzyme activity
Mode: inhibitor
Tested at: 0.5 µM
Baseline: control
SMILES | remaining activity
CC(C)[C@H](CO)Nc1nc(Nc2cccc(Cl)c2)c2ncn(C(C)C)c2n1 | 95.5%
Cc1nc(Nc2ncc(C(=O)Nc3c(C)cccc3Cl)s2)cc(N2CCN(CCO)CC2)n1 | 89.9%
CS(=O)(=O)CCNCc1ccc(-c2ccc3ncnc(Nc4ccc(OCc5cccc(F)c5)c(Cl)c4)c3c2)o1 | 88.6%
COc1cc2ncc(-c3ccccc3)nc2cc1OC | 91.1%
O=c1cc(N2CCOCC2)oc2c1ccc1ccccc12 | 98.8%
COc1cc2ncnc(N3CCN(C(=O)Nc4ccc(Oc5ccccc5)cc4)CC3)c2cc1OC | 97.5%
O=C1NC(=O)/C(=C/c2ccc3nccnc3c2)S1 | 94.7%
O=C(Nc1ccc(Cl)cc1)c1ccccc1NCc1ccncc1 | 92.1%
Cc1ccc(NC(=O)c2ccc(CN3CCN(C)CC3)cc2)cc1Nc1nccc(-c2cccnc2)n1 | 91.3%
Cn1cc(/C=C2\C(=O)Nc3ccc(S(N)(=O)=O)cc32)c2ccccc21 | 76.4%
Cn1cnc2cc3c(Nc4cccc(Br)c4)ncnc3cc21 | 93.1%
CCN1/C(=C/C(C)=O)Sc2ccc(OC)cc21 | 62.5%
C[S+]([O-])c1ccc(-c2nc(-c3ccncc3)c(-c3ccc(F)cc3)[nH]2)cc1 (centres unmarked) | 84.1%
COc1cc2ncnc(Nc3ccc(OCc4ccccc4)cc3)c2cc1OC | 95.3%
CC(C)c1nn(-c2c(Cl)cccc2Cl)c2nc(Cc3ccc(OCCO)cc3)[nH]c(=O)c12 | 92.3%
CC(=O)O/N=C1/C(c2c(O)[nH]c3cc(Br)ccc23)=Nc2ccccc21 | 84.9%
Nc1[nH]nc2nnc(-c3c(-c4ccccc4)nn4ccccc34)cc12 | 58.9%
COc1ccc(Cl)cc1NC(=O)Nc1cc(C)nc2ccccc12 | 97.1%
CCOc1cc2ncnc(Nc3cccc(Br)c3)c2cc1OCC | 95.4%
CN(C)CCCn1cc(C2=C(c3c[nH]c4ccccc34)C(=O)NC2=O)c2ccccc21 | 54.6%
COc1ccc(-c2cnc3c(-c4ccsc4)cnn3c2)cc1 | 100%
CCC(=O)Nc1ccc2ncnc(Nc3cccc(Br)c3)c2c1 | 85.9%

Single results of other studies
Compound | cell line | setting | quantity | result
COC(=O)C1=C(C)NC(C)=C(C(=O)O[C@@H]2CCCN(Cc3ccccc3)C2)[C@@H]1c1cccc([N+](=O)[O-])c1 (racemic) | A-375 | 100 µM, 60 h | viability | 6.71%

A few entries again (study 5):
SMILES | remaining activity
CC(C)c1nn(-c2c(Cl)cccc2Cl)c2nc(Cc3ccc(OCCO)cc3)[nH]c(=O)c12 | 92.3%
CC(=O)O/N=C1/C(c2c(O)[nH]c3cc(Br)ccc23)=Nc2ccccc21 | 84.9%
Nc1[nH]nc2nnc(-c3c(-c4ccccc4)nn4ccccc34)cc12 | 58.9%
COc1ccc(Cl)cc1NC(=O)Nc1cc(C)nc2ccccc12 | 97.1%
CCOc1cc2ncnc(Nc3cccc(Br)c3)c2cc1OCC | 95.4%
CN(C)CCCn1cc(C2=C(c3c[nH]c4ccccc34)C(=O)NC2=O)c2ccccc21 | 54.6%
COc1ccc(-c2cnc3c(-c4ccsc4)cnn3c2)cc1 | 100%
CCC(=O)Nc1ccc2ncnc(Nc3cccc(Br)c3)c2c1 | 85.9%
